Assay results of several laboratories.
A part holds a random share of what one study measured. Positions count from the first letter of the parent shown.

Sample 1
Target: Histone acetyltransferase KAT6A, winged helix 1, GST fusion (KAT6A, Homo sapiens, UniProt Q92794, residues 1-85)
Method: protein binding microarray
Form: double-stranded DNA, one strand shown
Sample: in vitro
Tested at: not given
Setting: 8-mer, flanks averaged, mean of 2 arrays, mostly near background
Relative to: not given
Direction: higher = stronger binding
Endpoint: E-score
Target sequence (chain): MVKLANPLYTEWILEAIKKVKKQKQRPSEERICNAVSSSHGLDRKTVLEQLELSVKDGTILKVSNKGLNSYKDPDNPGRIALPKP
TACGATAA: 0.0229
CTAGGCCC: 0.0919
ACTCTATC: -0.105
CACCCCAA: -0.234
GGAATGGA: -0.0475
AGCCGCCC: 0.347
CCGTGCCC: 0.301
AAAAATTT: -0.119
AAAGATAA: -0.133
CCGGTAAC: 0.24
CTAGGGAC: 0.04
TAACTAGA: 0.0901
ACCCGTGG: 0.255
CGACTCTA: -0.0464
GGGCTCTA: -0.148
AACTTCCT: -0.0966
CGTACGTA: 0.189
GGTCTCAA: 0.0431
GAGCACAC: -0.205
TAGGTCAA: -0.265
AAGATATA: -0.147
GGCCTGAC: -0.0107
GAAGTGGA: -0.0422
GGACACAC: 0.11
CCGGAATA: -0.0503

Sample 2
Target: Prothrombin, mature alpha-thrombin (F2, Homo sapiens, UniProt P00734)
Method: aptamer microarray, sandwich
Form: DNA with 2'F-ANA
Sample: in vitro
Tested at: 200 nM
Setting: whole 15-mer aptamer, many near background
With: Cy3 exosite-II aptamer, 400 nM
Direction: higher = stronger binding
Endpoint: mean fluorescence intensity
Strand: GGTTGGTGTGGTTGG
2'F-ANA at 2 5 9 10 11 13 15: 45.4 a.u.
2'F-ANA at 2 3 4 5 7 8 12 13 14 15: 54.2 a.u.
2'F-ANA at 1 3 6 8 9 11 12 13: 344 a.u.
2'F-ANA at 2 4 7 11 14: 119 a.u.
2'F-ANA at 1 5 6 12: 115 a.u.
2'F-ANA at 2 3 5 6 8 9 11 12 13 15: 127 a.u.
2'F-ANA at 1 2 5 8 9 10 12 14 15: 66.5 a.u.
2'F-ANA at 5 6 8 14 15: 47.4 a.u.
2'F-ANA at 6 7 8 9 13 14: 157 a.u.
2'F-ANA at 1 5 6 7 8 14 15: 49.3 a.u.
2'F-ANA at 1 2 3 4 7 9 10 12 14: 53.6 a.u.
2'F-ANA at 1 2 6 7 9 10 11 13 14 15: 51.1 a.u.
2'F-ANA at 1 2 3 5 8 15: 74.7 a.u.
2'F-ANA at 2 3 6 9 14: 363 a.u.
2'F-ANA at 2 4 6 7 8 12 14: 155 a.u.
2'F-ANA at 1 2 5 6 7 8 9 10 11 15: 50.9 a.u.
2'F-ANA at 1 3 5 6 7 8 9 10 11 15: 51.1 a.u.
2'F-ANA at 2 3 4 10 11 13: 225 a.u.

Sample 3
Target: ABI1, truncated, D143A, DHFR fusion (Arabidopsis thaliana)
Method: DHFR PCA, deep sequencing
Sample: yeast
Setting: methotrexate growth selection, single substitutions
With: (+)-ABA 1.4 µM
Relative to: wild-type fitted maximum
Direction: higher = stronger binding
Endpoint: relative binding score
Starting sequence: PYL1, truncated, DHFR fusion (Arabidopsis thaliana); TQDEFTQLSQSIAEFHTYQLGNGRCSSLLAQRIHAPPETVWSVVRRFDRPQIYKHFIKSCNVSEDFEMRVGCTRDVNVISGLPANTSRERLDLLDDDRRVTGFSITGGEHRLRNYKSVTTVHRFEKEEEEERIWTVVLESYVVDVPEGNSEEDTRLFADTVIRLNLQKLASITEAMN
S87D: -0.675%
L8P: 6.64%
R88I: 69.4%
L20E: 66.7%
G148H: 11%
A35I: -15.7%
D97P: 5.3%
R111T: 10%
N61V: 71.4%
L28V: 56.8%
Q19M: 31.7%
G107I: -7.87%
N149S: 60.2%
Q7F: 62%
L20S: 54.7%
R111L: 6.84%

Sample 4
Target: RNA binding protein fox-1 homolog 2, RRM domain, GST-SBP tag (RBFOX2, Homo sapiens, UniProt O43251-10, residues 100-194)
Method: RNA Bind-n-Seq
Form: RNA
Sample: in vitro
Tested at: 365 nM
Setting: natural RNA segment, single round, ends assumed
Relative to: no-protein control
Direction: higher = stronger binding
Endpoint: RBNS enrichment (R)
Shared flanks, not repeated: GGGAGUUCUACAGUCCGACGAUC … UGGAAUUCUCGGGUGCCAA
Construct (chain): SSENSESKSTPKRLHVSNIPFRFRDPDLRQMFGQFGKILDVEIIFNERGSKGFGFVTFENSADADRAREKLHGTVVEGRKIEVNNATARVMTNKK
CAAGUUUGCCCAUAGUCUUGAAUGCAAUAUUUGUUUAUUCCAAAAGAACAUAUUUAUAAUAAAAUCACUGUAGAAGGAUUUUUAAGAUGUUAGUGAAUUCUGUUUCUUUU: 2.41
UCAACACAAAGUCUACUUAUGCUUCUUUGCAUUAUGGUUAAACAAUUAAAAAAAAAAAAAGGACUCACUCUGCCUGCCGGCUGGUGUCUUUUAUUCUACUGGGUUGGAAU: 0.456
UUAUUUUAUUUGGAGAAGAGGGAUACAAUGGAAUUUUUCCUUACCAAUUAGAAAUAAUUGUAAUGCCUAAAAAACUUUUUCACAAAAAUGAAUCUUUGAAAUUUUUUAUU: 1.09
CCAUGUCUGGGUUCUCCAUGCCCAUCAGUCUCUGCAGUUUCUCUACCUGCCCCCAGAGCUGAGGCCAUCUGCAAGCCCCUGCCCAUGGCCCAAUGGGGAGCCUCCAGCCA: 0.361
CACACCCGCACCAUGUACUCCCAGGAACCUCCCACCUCUAUACCACCCAUUAAGUGGCUGCUGACUUAAAUGUGCUGGAACCAGCUGCUGAAGGUGGGGCCUAGGGAGGG: 0.905
CCUUUGGUGGUAUCCAUAUAGGAUGCUAGCCUGCCUUGUAGUAAUGUUUUAUAUGUUAAAAACAAAAUAAAGACAUCAACCAUUUCACAUAUAUUCUACUACUAAAGGUA: 0.408
GAGACCCGGGUUGAUUUGUGCUAUCUUGGGUCUUUGGCUUAAAUUAAUAGAUUUGUUCUGUGUUUGAUUGCCAGCAUCCUCCAGACCCCUGAAUCAUCUAAAGCUAGGUC: 0.804
UACAUUUGGAAUUAACUGAAGCCAAACUGCUGGGUACACCUGUGAGGAUUUUUUUUUCCUUAAGUAAAUCAUUUCAAGUGUAAAAACUAUUUUCUUUUAAUCUGGAUCUU: 0.466
ACAUAGUAAGCACUCAAUAAAUGGUAGUUACUUUUGUUGAGCUCAGCUGGUAGUUUGACCUCCGUUGGUGCAAUGCCAGAGAUGGGAUUGUCAGCCACCACACUGCCACC: 0.23
UUUCAUGCUUUAUGUUAUGUAGAAUUUGAGUUCAUGCUGAAUGCAUUCCAGCCAGUAAUUUAUAGCCUUUCCCCUAAAUCAAGAAUGAGUUUAAAAUUAUAGUCUGUCUU: 0.616
UCCUUCCAUUUGACCUAAUUUAACUGGUGAAAUUUAAAGUGAAUUCAUGGGCUCAUCUUUAAAGCUUUUACUAAAAGAUUUUCAGCUGAAUGGAACUCAUUAGCUGUGUG: 0.413
GUCCCUCUGUCCUACACGGUCACCACAGUGACGACCCAAGGCUUCCCCUUGCCUACAGGCCAGCACAUCCCUGGCUGCAGUGCCCAGCAGCUCCCAGCAUGCUCCGUGAU: 5.38

Sample 5
Target: Sal-like protein 4, full length isoform A (SALL4, Homo sapiens, UniProt Q9UJQ4, residues 1-1053)
Chain of UniProt Q9UJQ4 (whole entry, looked up): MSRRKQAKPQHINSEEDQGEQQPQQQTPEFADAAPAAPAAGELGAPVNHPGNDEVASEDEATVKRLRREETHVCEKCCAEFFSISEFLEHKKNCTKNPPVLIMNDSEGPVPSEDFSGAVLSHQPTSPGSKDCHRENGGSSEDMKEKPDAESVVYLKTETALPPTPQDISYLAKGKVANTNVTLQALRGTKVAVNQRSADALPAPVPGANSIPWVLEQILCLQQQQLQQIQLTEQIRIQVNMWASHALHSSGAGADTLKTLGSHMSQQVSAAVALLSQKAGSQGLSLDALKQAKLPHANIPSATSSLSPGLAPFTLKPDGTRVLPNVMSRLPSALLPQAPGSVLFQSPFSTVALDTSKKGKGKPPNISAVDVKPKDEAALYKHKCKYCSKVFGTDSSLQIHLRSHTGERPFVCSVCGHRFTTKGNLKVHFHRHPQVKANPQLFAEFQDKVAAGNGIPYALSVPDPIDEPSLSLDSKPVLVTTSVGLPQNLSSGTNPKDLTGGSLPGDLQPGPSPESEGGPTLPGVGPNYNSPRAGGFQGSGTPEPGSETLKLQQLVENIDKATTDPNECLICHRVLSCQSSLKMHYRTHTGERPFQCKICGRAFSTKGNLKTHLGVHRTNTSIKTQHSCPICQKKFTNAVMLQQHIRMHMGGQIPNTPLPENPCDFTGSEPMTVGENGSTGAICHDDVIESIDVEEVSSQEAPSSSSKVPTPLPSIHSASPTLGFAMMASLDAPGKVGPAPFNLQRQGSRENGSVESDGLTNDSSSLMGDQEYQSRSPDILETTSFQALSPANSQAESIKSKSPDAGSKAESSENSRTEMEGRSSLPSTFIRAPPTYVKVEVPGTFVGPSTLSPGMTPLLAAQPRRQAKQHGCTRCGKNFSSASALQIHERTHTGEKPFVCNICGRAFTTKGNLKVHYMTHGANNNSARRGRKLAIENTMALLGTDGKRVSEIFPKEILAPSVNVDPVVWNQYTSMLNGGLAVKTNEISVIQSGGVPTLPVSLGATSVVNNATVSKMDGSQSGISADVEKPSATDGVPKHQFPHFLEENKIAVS
Method: universal PBM
Form: double-stranded DNA, one strand shown
Sample: in vitro
Tested at: 600 nM
Setting: 8-mer, flanks averaged, mean of replicates
Direction: higher = stronger binding
Endpoint: E-score
AACCTAAA: 0.195
ATTACCAC: 0.157
AACCTCGA: -0.00377
ACCGGCGA: -0.298
TCTTCGCA: 0.0595
GAGACTCC: -0.121
CTTCTTGA: 0.128
GCGCACCA: -0.154
ATGGTAAG: 0.0559
CTAAATTC: 0.0413
GCCCGGCC: -0.39
CGAATGTA: 0.101
CAACACCG: -0.213
GAGAAATA: 0.203
TACGACTA: 0.0908
CCGATCAC: -0.0404
CATGTAGA: 0.16
CCGAGGCG: -0.328
AAGGCTGA: -0.014
CGGACTGC: -0.162
AATATCTA: 0.361
CATTACTC: 0.00739
GAATAGGA: 0.197
ACGGCATA: 0.0949

Sample 6
Target: CCNA2, cyclin fold, Cln2 fusion (human)
Method: yeast growth competition, sequencing
Sample: yeast
Setting: weak parent motif
Relative to: not given
Direction: higher = stronger binding
Endpoint: normalised enrichment score
Starting sequence: MASTL docking peptide (human); PMIAKNLMCELDE
K5P: -0.686
A4K: 0.483
N6E: -0.35
A4F: -0.106
D12H: 0.276
C9T: -0.107
C9M: -0.187
E10N: 0.0738
K5R: 0.619
E10S: -0.0936
K5F: -0.265
L7A: 0.0879
K5C: -0.315
I3W: -0.156
K5S: -0.615
A4V: 0.268
M2V: -0.0821
L7D: -0.288
I3G: -0.0165
M2K: 0.398
D12W: 0.0341
M2C: -0.0566
L7K: -0.0683
E10Y: 0.428
L7E: -0.231

Some of these lines once more (sample 6):
C9M: -0.187
N6E: -0.35
K5S: -0.615
E10N: 0.0738
K5P: -0.686
K5R: 0.619
L7E: -0.231
A4V: 0.268
M2K: 0.398
